# Measurements collected from several papers.
# Each numbered part is a random draw from the data of one study; scales do not carry over between parts. Substitutions count along the parent as printed.

# Set 1
# Target: Fragile X messenger ribonucleoprotein 1, C-terminal low-complexity region (Fmr1, Mus musculus, UniProt P35922)
# Method: RNA Bind-n-Seq
# Molecule type: RNA
# Matrix: in vitro
# Concentration: 200 nM
# Notes: whole 134-nt RNA, ends assumed
# Added: 150 mM KCl
# Baseline: input library
# Direction: higher = stronger binding
# Shared flanks, not repeated: GGGAGUUCUACAGUCCGACGAUC … UGGAAUUCUCGGGUGUCAAGG
Oligonucleotide,log2 enrichment
AGUCCUGUGCUACACAUCGUAUGUACCGAAUCAAAUUUUUAAAUUUAAAUUUUUAAAAAAGUAUUAUGUUACGCCGUUCGGAUCUGCACU,-1.25
GCAGGAAGUAAAAACAAAUGGAAAUGCUUCGGAUAGUGGCAGGGGUGGGGGUUGCUAAGGAAAGGGUGGGAUGGAAGUGGGUAAAGAGUU,0.292
CAAGUCCUGUGCUACACAUCGUAUGUACCGAAUCGGGGUUUGGGUUUGGGUUUGGGAAAGUAUUAUGUUACGCCGUUCGGAUCUGCACUU,1.14
CACAGACAACACGCACCCACACAGACACAGAGGGAAGGGGUUGGGAUGGGGACAGGGUGCACAGCAGGGCGGGGUAGGACCCCAGCCGCU,1.17
UAACUUUAGAGGAGGAUCUGAUGGAUAUGGCAGUGGACGUGGAUUUGGGGAUGGCUAUAAUGGGUAUGGAGGAGGACCAGGAGGUGGCAA,0.172
CAAGUCCUGUGCUACACAUCGUAUGUACCGAAUCGGGGAAAGGAAAGGGGAAAGGAAAGUAUUAUGUUACGCCGUUCGGAUCUGCACUUC,-0.177
UGUGCUACACAUCGUAUGUACCGAAUCGGGGUUUUUGGGGAAAAAAAGGGGAAAAAAAGGGGAAAGUAUUAUGUUACGCCGUUCGGAUCU,0.0983
CAAGUCCUGUGCUACACAUCGUAUGUACCGAAUCGGGGUUUGGGUUUGGGGUUUGGAAAGUAUUAUGUUACGCCGUUCGGAUCUGCACUU,-0.0325
CACAGACAACACGCACCCACACAGACACAGAGGGAAGGGGUUGGGAUGGGGACAGGGUGCACAUCAGGGCGGGGUAGGACCCCAGCCCCU,1.26
UGGGAGGUGGAUUUUGUUUAUUUUUUUAGCUCAUUUCCAGGGGUGGGAAUUUUUUUCUAAUAUGUGUCAUGAAUAAAGUUGUUUUUGAAA,0.332

# Set 2
# Target: Phosphate system positive regulatory protein PHO4, full length, GST-tagged (PHO4, Saccharomyces cerevisiae, UniProt P07270, residues 1-312)
# Method: competition protein-binding microarray
# Molecule type: double-stranded DNA, one strand shown
# Matrix: in vitro
# Concentration: 2 µM
# Notes: whole 60-bp probe, lowest competitor level
# Added: Cbf1 competitor, 0.05 µM
# Direction: higher = stronger binding
# Shared flanks, not repeated: … GTCTTGATTCGCTTGACGCTGCTG
# Target sequence (chain): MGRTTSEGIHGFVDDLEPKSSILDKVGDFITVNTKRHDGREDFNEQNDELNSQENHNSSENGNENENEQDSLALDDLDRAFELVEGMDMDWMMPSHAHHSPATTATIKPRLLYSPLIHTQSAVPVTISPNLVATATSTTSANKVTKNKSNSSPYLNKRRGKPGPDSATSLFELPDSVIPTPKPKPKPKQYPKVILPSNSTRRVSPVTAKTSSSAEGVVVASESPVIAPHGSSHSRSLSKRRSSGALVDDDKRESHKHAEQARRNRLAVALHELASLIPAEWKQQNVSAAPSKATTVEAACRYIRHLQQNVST
Oligonucleotide,fluorescence intensity
TGGAAGTATTTTACCCACGTATGGCAGGCAAGAACG,7060 a.u.
AGACATAGGGAGATGCATGTGTAGCGGATCCGCCTG,7110 a.u.
TTATTCCCCAACAATCACGTTCCTTCTGCCAACATC,11900 a.u.
GAAACCTTTTCCTCTTGCTCACCAGCTTCATTCTCG,2510 a.u.
AAAGCGGTAATTTGGAAGGTGGGTGCAGATATCTAT,4580 a.u.
CATACCCAACCTTGGAGTGTGGGTGAAGATATTTGT,6240 a.u.
GACTTACATCTCTGGCACGTGGTGAAGTACGAGCCC,16600 a.u.
TCACTACGCACAAACCATGTGGATGCCCAATCTGTA,10100 a.u.

# Set 3
# Target: CCNA2, cyclin fold, Cln2 fusion (human)
# Method: yeast growth competition, sequencing
# Matrix: yeast
# Notes: strong parent motif
# Baseline: not given
# Direction: higher = stronger binding
# Starting sequence: PKMYT1 docking peptide (human); SFEPRNLLSLFED
Change,normalised enrichment score
SFEPRNLLSLGED [F11G],-0.532
SFEPRNLLSLFFD [E12F],1.21
SFSPRNLLSLFED [E3S],1.45
SFEPRNLASLFED [L8A],2.68
SFEPQNLLSLFED [R5Q],0.227
DFEPRNLLSLFED [S1D],2.52

# Further values, each from its own experiment
Molecule,target,test,system,setting,scale,measurement,value
"PhoQ, residues 284 288 289 292 302 303 SLKLQV","PhoP, residues 12 14 15 18 19 QYFSL (Escherichia coli, UniProt P23836)","Sort-seq, item: YFP reporter",E. coli,"PhoQ-PhoP variant library, added: 10 µM Mg2+","baseline: high Mg2+ state, higher = stronger signaling",fold induction,7.5

# For quick reference, copied from above (set 1):
Oligonucleotide,log2 enrichment
CAAGUCCUGUGCUACACAUCGUAUGUACCGAAUCGGGGUUUGGGUUUGGGGUUUGGAAAGUAUUAUGUUACGCCGUUCGGAUCUGCACUU,-0.0325
GCAGGAAGUAAAAACAAAUGGAAAUGCUUCGGAUAGUGGCAGGGGUGGGGGUUGCUAAGGAAAGGGUGGGAUGGAAGUGGGUAAAGAGUU,0.292
